Measurements of several laboratories.
Protocols differ between the studies behind these lines.
Method: steady-state kinetics
B1: enzyme D382A (Arabidopsis thaliana, UniProt O82390); chain MNARALLCSSNIHSLYTSNRPPEKTSSSRSLRNLKPSPKSLRVWIYPRNRSSVFRVLVRSSDKSESSNSYYVEGDKVSGNNDVVSDSPSSIVLPWWEEFPKRWVIVLLCFSAFLLCNMDRVNMSIAILPMSAEYGWNPATVGLIQSSFFWGYLLTQIAGGIWADTVGGKRVLGFGVIWWSIATILTPVAAKLGLPYLLVVRAFMGVGEGVAMPAMNNILSKWVPVQERSRSLALVYSGMYLGSVTGLAFSPFLIHQFGWPSVFYSFGSLGTVWLTLWLTKAESSPLEDPTLLPEERKLIADNCASKEPVKSIPWRLILSKPPVWALISCHFCHNWGTFILLTWMPTYYHQVLKFNLMESGLLSVFPWMTMAISANAGGWIAATLVSRGFSVTNVRKIMQTIGFLGPAFFLTQLKHIDSPTMAVLCMACSQGTDAFSQSGLYSNHQDIAPRYSGVLLGLSNTAGVLAGVLGTAATGHILQHGSWDDVFTISVGLYLVGTVIWNLFSTGEKIID
B2: enzyme (Candida albicans, UniProt A0A1D8PHX1); chain MISIIQNGISQLSSVSGLDEANLKILICTLLSFPFGIIFKRLPDHDYTLKNIYNVAVSCFYVFGICDLRFGISTLLISATGSYFITRYVRTKSMPWINFLFLMIHMAYSHFHLQFFKEYDPKSIDITGAQMILVMKLSAFGWNIHDGKQPRSTLNDFNKARAITKHPNVLPYIGYVFFYASLLTGPAFDYADYDKFIHGTLFDDVPQDKRPGKNKRRIPRSGVQAFKKFSLGFFWAFLLLQSDKFVTMEYMFSPEFVQYHGLFYRIIYMWILGFTFRLKYYTIWTIAEGACILCGIGYNGVDPETGEFKWNRVQNIDPWSFETGQNVHACLEAWNQNTNIWLKNYVYLRVAKPGKKPGFKSTIFTFTTSAFWHGTRPGYYLTFVVGALMQTVGKYYRRNFRPIFLEADGKTPKPTKIVYDFVCWVNTQLAFGFFVQPFVILGFTKSLECWATVYYWLLWVIAISFFAFSGPFAKSVSKFFKSLQPSYREQQRKSREDKYKLNNEEASIVEQAVGAKLGQDYDIPALGLPPFDVFTDFDQTEVDHDIQHLRKAWTSFRGRRGSITENDFDGLKDAYNNFTNEINDIFNTKKEEFKKEKLNKQN
B3: Ma-WS/DGAT A144F (Marinobacter nauticus); chain MTPLNPTDQLFLWLEKRQQPMHVGGLQLFSFPEGAPDDYVAQLADQLRQKTEVTAPFNQRLSYRLGQPVWVEDEHLDLEHHFRFEALPTPGRIRELLSFVSAEHSHLMDRERPMWEVHLIEGLKDRQFALYTKVHHSLVDGVSFMRMATRMLSENPDEHGMPPIWDLPCLSRDRGESDGHSLWRSVTHLLGLSGRQLGTIPTVAKELLKTINQARKDPAYDSIFHAPRCMLNQKITGSRRFAAQSWCLKRIRAVCEAYGTTVNDVVTAMCAAALRTYLMNQDALPEKPLVAFVPVSLRRDDSSGGNQVGVILASLHTDVQEAGERLLKIHHGMEEAKQRYRHMSPEEIVNYTALTLAPAAFHLLTGLAPKWQTFNVVISNVPGPSRPLYWNGAKLEGMYPVSIDMDRLALNMTLTSYNDQVEFGLIGCRRTLPSLQRMLDYLEQGLAELELNAGL
B4: protein (Phaseolus vulgaris, UniProt V7ASW7); chain MALKDAQDQQDPRLERISSAIRVIPDFPKPGILFQDITTLLLDPKAFKDTIDLFVERYRDQNINVVAGVEARGFIFGPPIALAIGAKFVPMRKPNKLPGEVISEEYSLEYGTDKIEMHVGAVQPGERALVIDDLIATGGTLDAAIKLLERVGVDVVECACLIELPELKGRDRLGDKPLFVLVKVTA
Sequence of UniProt Q8QZR1 (whole entry, looked up): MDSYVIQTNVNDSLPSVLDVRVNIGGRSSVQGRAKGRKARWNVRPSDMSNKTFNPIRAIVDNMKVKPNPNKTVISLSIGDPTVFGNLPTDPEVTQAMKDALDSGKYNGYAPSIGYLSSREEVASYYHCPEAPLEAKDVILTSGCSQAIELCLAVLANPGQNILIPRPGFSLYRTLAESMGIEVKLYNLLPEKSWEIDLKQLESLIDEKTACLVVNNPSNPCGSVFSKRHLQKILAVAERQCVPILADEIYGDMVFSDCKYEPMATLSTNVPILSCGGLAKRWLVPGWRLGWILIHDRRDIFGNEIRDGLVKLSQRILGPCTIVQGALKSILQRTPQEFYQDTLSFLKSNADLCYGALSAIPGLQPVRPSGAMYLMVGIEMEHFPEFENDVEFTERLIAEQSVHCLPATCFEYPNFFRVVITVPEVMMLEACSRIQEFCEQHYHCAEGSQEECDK
Sequence of UniProt P49419 (whole entry, looked up): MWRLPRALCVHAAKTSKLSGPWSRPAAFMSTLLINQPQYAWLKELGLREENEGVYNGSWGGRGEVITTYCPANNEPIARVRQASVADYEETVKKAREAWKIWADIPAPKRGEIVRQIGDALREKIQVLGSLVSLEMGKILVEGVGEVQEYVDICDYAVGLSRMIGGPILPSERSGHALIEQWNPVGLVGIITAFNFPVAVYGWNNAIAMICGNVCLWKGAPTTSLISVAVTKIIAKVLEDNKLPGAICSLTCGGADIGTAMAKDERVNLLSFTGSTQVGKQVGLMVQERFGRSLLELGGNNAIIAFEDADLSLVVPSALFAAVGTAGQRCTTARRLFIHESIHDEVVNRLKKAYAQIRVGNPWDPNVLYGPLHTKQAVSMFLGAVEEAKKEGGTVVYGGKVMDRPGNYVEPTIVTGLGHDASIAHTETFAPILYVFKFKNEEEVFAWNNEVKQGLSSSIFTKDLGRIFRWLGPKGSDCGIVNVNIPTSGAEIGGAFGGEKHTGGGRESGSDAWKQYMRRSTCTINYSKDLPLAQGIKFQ
Sequence of UniProt P07914 (whole entry, looked up): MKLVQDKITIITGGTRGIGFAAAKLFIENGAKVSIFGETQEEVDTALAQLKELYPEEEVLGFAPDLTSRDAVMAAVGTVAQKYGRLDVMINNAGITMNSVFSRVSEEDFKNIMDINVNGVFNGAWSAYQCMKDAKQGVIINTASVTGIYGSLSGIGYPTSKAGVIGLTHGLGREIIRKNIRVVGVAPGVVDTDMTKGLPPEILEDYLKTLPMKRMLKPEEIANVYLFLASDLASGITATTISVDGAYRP
Sequence of UniProt Q7L266 (whole entry, looked up): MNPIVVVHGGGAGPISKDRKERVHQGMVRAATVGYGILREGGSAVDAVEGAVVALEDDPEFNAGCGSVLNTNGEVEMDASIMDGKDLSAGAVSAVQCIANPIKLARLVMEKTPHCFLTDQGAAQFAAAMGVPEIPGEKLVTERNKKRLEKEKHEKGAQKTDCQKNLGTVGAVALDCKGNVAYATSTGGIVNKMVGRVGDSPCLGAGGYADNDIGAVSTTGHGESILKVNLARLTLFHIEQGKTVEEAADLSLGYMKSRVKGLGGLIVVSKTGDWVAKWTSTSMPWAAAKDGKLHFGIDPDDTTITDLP
Sequence of UniProt P34752 (whole entry, looked up): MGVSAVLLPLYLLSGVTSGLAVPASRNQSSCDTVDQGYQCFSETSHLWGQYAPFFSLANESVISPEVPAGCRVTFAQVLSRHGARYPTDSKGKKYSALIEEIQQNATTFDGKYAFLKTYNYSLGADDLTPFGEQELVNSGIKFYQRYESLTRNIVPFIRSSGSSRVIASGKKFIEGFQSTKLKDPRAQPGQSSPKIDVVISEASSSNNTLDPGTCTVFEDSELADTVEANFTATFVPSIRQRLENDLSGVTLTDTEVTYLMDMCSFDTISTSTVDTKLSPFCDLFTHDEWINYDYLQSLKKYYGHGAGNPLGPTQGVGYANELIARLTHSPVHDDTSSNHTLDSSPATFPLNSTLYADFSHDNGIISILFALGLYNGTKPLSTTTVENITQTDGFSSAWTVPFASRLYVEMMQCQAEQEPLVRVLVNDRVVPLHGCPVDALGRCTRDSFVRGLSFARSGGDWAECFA

Substance | substrate | pH | temperature | setting | with | Km [µM]
ALDH7A1 (Homo sapiens, UniProt P49419) | N[C@@H](CCCC=O)C(=O)O | pH 8 | 20 °C |  | NAD+ 2.5 mM | 600
B1 (enzyme D382A) | O=P(O)(O)O | pH 6.5 | 25 °C | apparent, not purified |  | 57.2
B2 (enzyme) | CCCCC/C=C\C/C=C\CCCCCCCC(=O)SCCNC(=O)CCNC(=O)[C@H](O)C(C)(C)COP(=O)(O)OP(=O)(O)OC[C@H]1O[C@@H](n2cnc3c(N)ncnc32)[C@H](O)[C@@H]1OP(=O)(O)O | pH 7.4 | 37 °C | apparent, not purified |  | 38.3
protein (Candidatus Protochlamydia amoebophila, UniProt Q6MEN4) | Nc1nc2c(ncn2[C@@H]2O[C@H](COP(=O)(O)OP(=O)(O)OP(=O)(O)O)[C@@H](O)[C@H]2O)c(=O)[nH]1 | pH 7 | 30 °C | transporter, labelled substrate, apparent, not purified |  | 156
ASRGL1 (Homo sapiens, UniProt Q7L266) | N[C@@H](CC(=O)N[C@@H](Cc1ccccc1)C(=O)O)C(=O)O | pH 7.4 | 37 °C | NaCl 100 mM |  | 400
BaiA1 (Clostridium scindens, UniProt P07914) | NC(=O)c1ccc[n+]([C@@H]2O[C@H](COP(=O)(O)OP(=O)(O)OC[C@H]3O[C@@H](n4cnc5c(N)ncnc54)[C@H](O)[C@@H]3O)[C@@H](O)[C@H]2O)c1 | pH 8.7 | 37 °C | cofactor varied | glycocholic acid 1.4 mM | 17
pgmB H20A (Lactococcus lactis) (sequence not shown) | O=P(O)(O)OC[C@H]1O[C@@H](OP(=O)(O)O)[C@H](O)[C@@H](O)[C@@H]1O | pH 7 | 25 °C |  |  | 2.6
Tat (Mus musculus, UniProt Q8QZR1) | O=C(O)CCC(=O)C(=O)O | pH 7 | 38 °C |  | PLP | 1800
B3 (Ma-WS/DGAT A144F) | CCCCCC(=O)SCCNC(=O)CCNC(=O)[C@H](O)C(C)(C)COP(=O)(O)OP(=O)(O)OC[C@H]1O[C@@H](n2cnc3c(N)ncnc32)[C@H](O)[C@@H]1OP(=O)(O)O | pH 7.5 | 25 °C | NaCl 300 mM, apparent | 1-hexanol 4 mM | 166
enzyme (UniProt A0A7J5BGR1) | Oc1ccc2c(c1)CCC2 | pH 8 | 25 °C |  |  | 425
phyA (Aspergillus niger, UniProt P34752) | O=P(O)(O)O[C@@H]1[C@@H](OP(=O)(O)O)[C@H](OP(=O)(O)O)[C@@H](O)[C@@H](OP(=O)(O)O)[C@H]1OP(=O)(O)O | pH 5 | 37 °C |  |  | 159
B4 (protein) | Nc1ncnc2nc[nH]c12 | pH 7.5 | 37 °C | MgCl2 5 mM | PRPP 1 mM | 360

Some of these lines once more:
Substance | substrate | pH | temperature | setting | with | Km [µM]
B1 (enzyme D382A) | O=P(O)(O)O | pH 6.5 | 25 °C | apparent, not purified |  | 57.2
